Values quoted from earlier work as cited in several papers.
Lines come from different studies, so protocols differ. Values after ≈ are worked out from the molar mass of the structure shown.
Sequence of UniProt Q8TD19 (whole entry, looked up): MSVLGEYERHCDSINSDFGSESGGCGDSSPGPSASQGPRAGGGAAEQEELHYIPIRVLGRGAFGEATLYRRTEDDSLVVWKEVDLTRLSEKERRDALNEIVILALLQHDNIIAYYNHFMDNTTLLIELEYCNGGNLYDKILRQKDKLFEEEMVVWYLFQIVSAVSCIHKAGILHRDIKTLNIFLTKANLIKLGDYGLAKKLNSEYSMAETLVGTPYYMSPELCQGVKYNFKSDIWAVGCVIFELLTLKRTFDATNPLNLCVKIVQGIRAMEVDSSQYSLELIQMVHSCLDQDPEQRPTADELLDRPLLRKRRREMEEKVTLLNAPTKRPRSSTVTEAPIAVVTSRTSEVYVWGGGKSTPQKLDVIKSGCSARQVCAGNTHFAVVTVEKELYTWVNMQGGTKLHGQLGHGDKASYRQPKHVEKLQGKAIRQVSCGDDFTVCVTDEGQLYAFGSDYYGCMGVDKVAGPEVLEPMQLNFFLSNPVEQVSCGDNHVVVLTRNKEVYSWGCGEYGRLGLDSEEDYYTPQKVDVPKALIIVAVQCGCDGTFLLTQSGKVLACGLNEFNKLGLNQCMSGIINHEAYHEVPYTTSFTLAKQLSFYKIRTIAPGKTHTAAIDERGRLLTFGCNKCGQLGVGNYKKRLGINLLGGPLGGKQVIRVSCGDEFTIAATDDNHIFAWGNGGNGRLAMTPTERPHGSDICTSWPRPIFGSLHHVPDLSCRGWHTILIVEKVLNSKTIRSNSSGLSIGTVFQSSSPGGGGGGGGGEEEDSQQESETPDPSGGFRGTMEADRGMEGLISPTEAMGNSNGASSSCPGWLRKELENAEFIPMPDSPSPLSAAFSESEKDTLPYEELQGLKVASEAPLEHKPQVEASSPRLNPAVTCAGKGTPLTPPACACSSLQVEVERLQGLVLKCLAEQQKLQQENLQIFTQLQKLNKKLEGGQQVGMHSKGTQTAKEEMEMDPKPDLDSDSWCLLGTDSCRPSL

SMILES	tested on	test	system	conditions	how to read	endpoint	result
Nc1ccn([C@H]2CC[C@@H](CO)O2)c(=O)n1			human			oral bioavailability	93%
CN/C(=N/CCSCc1nc[nH]c1C)NC#N			human			oral bioavailability	60 to 70%
CC(C)NCC(O)COc1cccc2ccccc12 (centres unmarked)			human	oral		oral bioavailability	~90%
Cn1c(=O)c2c(ncn2C)n(C)c1=O			human			oral bioavailability	100%
Cc1[nH]c2ccccc2c1CCNCc1ccc(/C=C/C(=O)NO)cc1			human	oral, dose not given		oral bioavailability	21%
COc1ccc2[nH]c([S+]([O-])Cc3ncc(C)c(OC)c3C)nc2c1 (centres unmarked)			human			oral bioavailability	40 to 60%
COCCc1ccc(OCC(O)CNC(C)C)cc1 (centres unmarked)			human			oral bioavailability	50%
COC(=O)Nc1nc2ccc(C(=O)c3ccccc3)cc2[nH]1			human	oral		oral bioavailability	12 to 35%
CNC(C)C1CCC(N)C(OC2C(N)CC(N)C(OC3OCC(C)(O)C(NC)C3O)C2O)O1 (centres unmarked)	Acinetobacter baumannii		clinical isolate RKI-No_11/16			MIC	8 µg/mL (≈ 16.8 µM)
Nc1cc(C(F)(F)F)c(-c2nc(N3CCOCC3)nc(N3CCOCC3)n2)cn1	NEK9 (Homo sapiens, UniProt Q8TD19)	enzyme activity		10 µM	baseline: untreated	remaining activity	100%
CC(C)(C)NCC(O)c1cc(O)cc(O)c1 (centres unmarked)			human	oral		oral bioavailability	11%
CC(C)(O/N=C(\C(=O)N[C@@H]1C(=O)N2C(C(=O)[O-])=C(C[n+]3ccccc3)CS[C@H]12)c1csc(N)n1)C(=O)O	Klebsiella pneumoniae		clinical isolate RKI-No_908/15			MIC	≤ 2 µg/mL
CCc1cc2c(cc1CC)CC(NC[C@H](O)c1ccc(O)c3[nH]c(=O)ccc13)C2			human	oral		oral bioavailability	20%
CC(C)[C@H](N)C(=O)OCC(CO)OCn1cnc2c(=O)[nH]c(N)nc21 (some centres unmarked)			human			oral bioavailability	32%
O=C(O)[C@H]1/C(=C/CO)O[C@@H]2CC(=O)N21			human adults	oral		oral bioavailability	60%
Nc1ccn([C@H]2CO[C@@H](CO)S2)c(=O)n1			human			oral bioavailability	80%
NC(=O)N1c2ccccc2CC(O)c2ccccc21 (centres unmarked)			healthy adult humans	oral		oral bioavailability	~100%

For quick reference, copied from above:
SMILES	tested on	test	system	conditions	how to read	endpoint	result
NC(=O)N1c2ccccc2CC(O)c2ccccc21 (centres unmarked)			healthy adult humans	oral		oral bioavailability	~100%
CNC(C)C1CCC(N)C(OC2C(N)CC(N)C(OC3OCC(C)(O)C(NC)C3O)C2O)O1 (centres unmarked)	Acinetobacter baumannii		clinical isolate RKI-No_11/16			MIC	8 µg/mL (≈ 16.8 µM)
Nc1cc(C(F)(F)F)c(-c2nc(N3CCOCC3)nc(N3CCOCC3)n2)cn1	NEK9 (Homo sapiens, UniProt Q8TD19)	enzyme activity		10 µM	baseline: untreated	remaining activity	100%
